{"data": "Published values from different studies", "note": "Every numbered part comes from another study and shows a few of its results, in no order. Several values in a cell are separate wells, animals, samples, runs or records.", "chain of UniProt P23458 (whole entry, looked up)": "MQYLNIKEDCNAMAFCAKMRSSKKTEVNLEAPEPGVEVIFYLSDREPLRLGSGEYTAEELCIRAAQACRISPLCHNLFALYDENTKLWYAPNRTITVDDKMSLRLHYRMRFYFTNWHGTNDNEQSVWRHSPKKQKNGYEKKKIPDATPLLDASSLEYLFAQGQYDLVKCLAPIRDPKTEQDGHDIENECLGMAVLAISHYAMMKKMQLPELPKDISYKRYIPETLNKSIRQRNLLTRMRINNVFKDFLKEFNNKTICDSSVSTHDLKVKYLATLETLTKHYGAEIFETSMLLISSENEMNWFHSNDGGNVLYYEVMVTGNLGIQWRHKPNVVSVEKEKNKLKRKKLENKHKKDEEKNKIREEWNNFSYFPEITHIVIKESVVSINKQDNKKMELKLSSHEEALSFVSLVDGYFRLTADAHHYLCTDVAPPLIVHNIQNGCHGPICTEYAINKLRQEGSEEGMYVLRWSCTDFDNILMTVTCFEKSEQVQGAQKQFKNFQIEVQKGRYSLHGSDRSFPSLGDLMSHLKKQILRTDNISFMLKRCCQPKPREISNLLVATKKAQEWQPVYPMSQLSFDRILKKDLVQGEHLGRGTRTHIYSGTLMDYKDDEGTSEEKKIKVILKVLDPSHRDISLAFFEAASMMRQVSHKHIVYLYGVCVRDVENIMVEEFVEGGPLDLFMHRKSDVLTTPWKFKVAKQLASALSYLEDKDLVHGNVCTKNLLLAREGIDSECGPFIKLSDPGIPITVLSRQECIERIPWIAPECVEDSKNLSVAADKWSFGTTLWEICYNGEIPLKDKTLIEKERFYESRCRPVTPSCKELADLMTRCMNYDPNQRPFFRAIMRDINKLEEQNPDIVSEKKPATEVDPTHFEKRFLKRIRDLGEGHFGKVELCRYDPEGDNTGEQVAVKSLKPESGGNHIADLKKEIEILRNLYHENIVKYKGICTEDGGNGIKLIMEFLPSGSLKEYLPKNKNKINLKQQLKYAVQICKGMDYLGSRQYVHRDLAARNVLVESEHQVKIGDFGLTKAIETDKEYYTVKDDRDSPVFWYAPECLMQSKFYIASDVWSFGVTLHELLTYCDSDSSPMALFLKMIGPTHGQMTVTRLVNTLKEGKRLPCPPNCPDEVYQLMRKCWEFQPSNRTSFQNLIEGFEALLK", "chain of UniProt P29317 (whole entry, looked up)": "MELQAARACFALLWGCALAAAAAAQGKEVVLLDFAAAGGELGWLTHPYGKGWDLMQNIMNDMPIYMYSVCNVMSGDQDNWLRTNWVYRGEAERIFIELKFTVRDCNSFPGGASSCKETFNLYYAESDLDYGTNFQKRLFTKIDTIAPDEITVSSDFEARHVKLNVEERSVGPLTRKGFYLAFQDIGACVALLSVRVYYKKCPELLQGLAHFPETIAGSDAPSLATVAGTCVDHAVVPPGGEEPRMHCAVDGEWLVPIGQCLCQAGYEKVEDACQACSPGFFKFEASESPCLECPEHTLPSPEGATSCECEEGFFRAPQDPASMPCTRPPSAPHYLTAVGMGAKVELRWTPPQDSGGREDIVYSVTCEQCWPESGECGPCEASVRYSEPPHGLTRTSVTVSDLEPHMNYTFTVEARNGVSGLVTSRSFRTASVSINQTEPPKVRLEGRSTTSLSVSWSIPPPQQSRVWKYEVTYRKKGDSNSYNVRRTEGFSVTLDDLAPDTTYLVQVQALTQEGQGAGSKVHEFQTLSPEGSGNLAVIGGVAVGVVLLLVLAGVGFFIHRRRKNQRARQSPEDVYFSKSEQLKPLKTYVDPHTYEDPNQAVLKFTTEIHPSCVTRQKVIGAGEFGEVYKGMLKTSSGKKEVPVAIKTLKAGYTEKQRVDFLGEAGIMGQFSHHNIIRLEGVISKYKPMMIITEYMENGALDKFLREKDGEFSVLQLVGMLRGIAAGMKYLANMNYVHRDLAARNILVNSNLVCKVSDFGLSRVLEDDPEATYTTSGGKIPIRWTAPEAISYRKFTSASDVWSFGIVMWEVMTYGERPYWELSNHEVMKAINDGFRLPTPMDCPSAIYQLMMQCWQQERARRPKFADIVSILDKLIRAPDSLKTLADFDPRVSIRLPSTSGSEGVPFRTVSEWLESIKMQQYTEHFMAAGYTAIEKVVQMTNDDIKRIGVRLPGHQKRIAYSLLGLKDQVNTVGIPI", "chain of UniProt Q8NFD2 (whole entry, looked up)": "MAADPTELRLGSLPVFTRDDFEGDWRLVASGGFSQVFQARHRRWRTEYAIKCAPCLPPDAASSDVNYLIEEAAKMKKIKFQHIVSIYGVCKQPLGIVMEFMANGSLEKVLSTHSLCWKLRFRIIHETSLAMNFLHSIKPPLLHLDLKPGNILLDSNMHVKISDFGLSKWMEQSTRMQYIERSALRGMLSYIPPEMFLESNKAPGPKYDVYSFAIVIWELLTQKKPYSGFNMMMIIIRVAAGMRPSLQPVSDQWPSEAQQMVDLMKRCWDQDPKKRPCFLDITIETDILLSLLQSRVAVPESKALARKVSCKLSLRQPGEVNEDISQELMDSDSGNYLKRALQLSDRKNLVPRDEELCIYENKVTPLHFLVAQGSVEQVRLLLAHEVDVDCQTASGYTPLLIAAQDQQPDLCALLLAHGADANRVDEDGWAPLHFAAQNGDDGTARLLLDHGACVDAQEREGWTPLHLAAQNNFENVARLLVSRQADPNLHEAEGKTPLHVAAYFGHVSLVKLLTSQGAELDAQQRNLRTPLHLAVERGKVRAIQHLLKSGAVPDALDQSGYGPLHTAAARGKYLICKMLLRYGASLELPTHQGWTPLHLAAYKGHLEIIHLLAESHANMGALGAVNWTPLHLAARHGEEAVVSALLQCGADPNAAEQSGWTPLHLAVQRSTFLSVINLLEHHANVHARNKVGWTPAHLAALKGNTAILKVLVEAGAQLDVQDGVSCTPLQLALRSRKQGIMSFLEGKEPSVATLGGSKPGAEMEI", "chain of UniProt P54753 (whole entry, looked up)": "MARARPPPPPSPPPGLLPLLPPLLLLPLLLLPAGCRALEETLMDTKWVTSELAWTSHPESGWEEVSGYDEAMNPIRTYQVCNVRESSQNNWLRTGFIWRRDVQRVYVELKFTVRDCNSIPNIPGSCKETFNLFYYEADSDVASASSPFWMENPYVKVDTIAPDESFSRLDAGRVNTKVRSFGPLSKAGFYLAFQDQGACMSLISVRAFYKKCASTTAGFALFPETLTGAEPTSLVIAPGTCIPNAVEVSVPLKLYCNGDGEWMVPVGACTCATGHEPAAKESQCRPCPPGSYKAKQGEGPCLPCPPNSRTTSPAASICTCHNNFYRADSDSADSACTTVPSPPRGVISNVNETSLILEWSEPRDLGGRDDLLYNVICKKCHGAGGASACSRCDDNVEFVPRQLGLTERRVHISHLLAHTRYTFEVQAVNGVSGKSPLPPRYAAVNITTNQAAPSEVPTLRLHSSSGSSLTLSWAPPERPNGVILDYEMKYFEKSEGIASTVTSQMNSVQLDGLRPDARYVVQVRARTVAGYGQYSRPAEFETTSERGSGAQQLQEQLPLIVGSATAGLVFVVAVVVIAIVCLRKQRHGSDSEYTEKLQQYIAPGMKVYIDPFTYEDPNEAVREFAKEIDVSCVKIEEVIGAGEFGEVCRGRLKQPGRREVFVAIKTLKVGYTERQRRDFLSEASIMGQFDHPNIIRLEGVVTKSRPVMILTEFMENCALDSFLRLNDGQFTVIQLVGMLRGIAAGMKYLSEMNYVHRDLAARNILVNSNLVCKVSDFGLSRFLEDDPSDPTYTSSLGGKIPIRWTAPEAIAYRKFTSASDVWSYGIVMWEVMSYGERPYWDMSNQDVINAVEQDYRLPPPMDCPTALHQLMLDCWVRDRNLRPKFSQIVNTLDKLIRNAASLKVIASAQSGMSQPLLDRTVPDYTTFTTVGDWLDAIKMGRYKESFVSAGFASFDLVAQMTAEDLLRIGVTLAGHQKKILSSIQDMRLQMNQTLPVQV", "chain of UniProt O14757 (whole entry, looked up)": "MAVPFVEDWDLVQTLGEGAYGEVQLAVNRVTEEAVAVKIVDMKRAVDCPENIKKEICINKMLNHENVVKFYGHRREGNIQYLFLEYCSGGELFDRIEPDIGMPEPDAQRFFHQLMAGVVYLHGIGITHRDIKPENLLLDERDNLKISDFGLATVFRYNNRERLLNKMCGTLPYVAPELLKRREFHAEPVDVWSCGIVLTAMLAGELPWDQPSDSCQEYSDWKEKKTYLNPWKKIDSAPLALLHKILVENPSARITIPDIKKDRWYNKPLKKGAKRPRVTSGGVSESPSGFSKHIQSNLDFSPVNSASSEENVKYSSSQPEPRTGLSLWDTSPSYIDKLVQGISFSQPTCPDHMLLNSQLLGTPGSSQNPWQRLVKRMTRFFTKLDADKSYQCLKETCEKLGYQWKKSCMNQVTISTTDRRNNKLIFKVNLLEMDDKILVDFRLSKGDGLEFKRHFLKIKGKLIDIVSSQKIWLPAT", "chain of UniProt Q99640 (whole entry, looked up)": "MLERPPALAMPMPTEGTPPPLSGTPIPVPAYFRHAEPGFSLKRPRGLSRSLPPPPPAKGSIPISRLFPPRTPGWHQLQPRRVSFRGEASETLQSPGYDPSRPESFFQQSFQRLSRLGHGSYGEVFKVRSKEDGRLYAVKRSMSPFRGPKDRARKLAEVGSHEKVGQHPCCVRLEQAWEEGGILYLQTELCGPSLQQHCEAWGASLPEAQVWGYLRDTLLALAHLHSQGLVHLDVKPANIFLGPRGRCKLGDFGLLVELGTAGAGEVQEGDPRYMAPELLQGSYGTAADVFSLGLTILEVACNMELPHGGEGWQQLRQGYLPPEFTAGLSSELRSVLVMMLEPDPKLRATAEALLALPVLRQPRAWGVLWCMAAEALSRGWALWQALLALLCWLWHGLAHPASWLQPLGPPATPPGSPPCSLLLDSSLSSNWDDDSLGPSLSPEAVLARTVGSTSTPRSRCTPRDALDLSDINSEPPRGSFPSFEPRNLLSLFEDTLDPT"}
{"data": "Study 1", "cell line": "mouse MPNST tumor cells", "technique": "high-content nuclear imaging", "refers to": "cell number", "tested at": "10 µM", "time": "12 h", "setting": "mean of 2 replicates", "reference": "plate mean", "reading": "higher = more cells"}
{"SMILES": "CSc1ccc2c(c1)C(N1CCN(C)CC1)Cc1ccccc1S2 (centres unmarked)", "nuclei count": "-5.01 z-score"}
{"SMILES": "O=C(Nc1ccc(N2CCC(C(=O)N3CCOCC3)CC2)cc1)c1cnc(Oc2ccccc2)nc1", "nuclei count": "-0.204 z-score"}
{"SMILES": "COC1CCC(C(=O)c2ccc3nc4c(cc3c2)CCCO4)CC1 (centres unmarked)", "nuclei count": "0.338 z-score"}
{"SMILES": "c1cnc(N2CCN(Cc3ccc4c(c3)OCO4)CC2)nc1", "nuclei count": "-0.138 z-score"}
{"SMILES": "COc1cc(-c2ccc(=O)[nH]n2)ccc1OC(F)F", "nuclei count": "1.74 z-score and 2.19 z-score"}
{"SMILES": "O=P(O)(O)C(O)(Cn1ccnc1)P(=O)(O)O", "nuclei count": "0.656 z-score"}
{"SMILES": "O=C(Nc1cccnc1)c1cc(-c2ccnc(F)c2)ccc1OCc1ccccc1", "nuclei count": "0.241 z-score"}
{"SMILES": "CNC(=O)c1cc2c(cn1)[nH]c1ccccc12", "nuclei count": "1.54 z-score"}
{"data": "Study 2", "Compound": "CC(C)n1cnc(-c2ccc(F)cc2)c1-c1ncc(C(=O)Nc2ccc(N3CCN(C)CC3)cc2)[nH]1", "technique": "phase 2a clinical trial", "host": "patients with idiopathic pulmonary fibrosis"}
{"test": "refers to: C-reactive protein increased", "setting": "dose not given, Grade 2, all drug arms total", "patients with treatment-emergent adverse events [%]": 0}
{"test": "refers to: first degree atrioventricular block", "setting": "60 mg once daily, Grade 2", "patients with treatment-emergent adverse events [%]": 0}
{"test": "refers to: hepatic function abnormal", "setting": "30 mg once daily, Grade 4", "patients with treatment-emergent adverse events [%]": 0}
{"test": "refers to: electrocardiogram QT prolonged", "setting": "30 mg once daily, Grade 4", "patients with treatment-emergent adverse events [%]": 0}
{"test": "refers to: electrocardiogram QT prolonged", "setting": "30 mg once daily, Grade 3", "patients with treatment-emergent adverse events [%]": 0}
{"test": "refers to: electrocardiogram QT prolonged", "setting": "60 mg once daily, Grade 3", "patients with treatment-emergent adverse events [%]": 0}
{"test": "refers to: electrocardiogram high voltage", "setting": "60 mg once daily, Grade 3", "patients with treatment-emergent adverse events [%]": 0}
{"test": "refers to: electrocardiogram T wave abnormal", "setting": "30 mg once daily, Grade 5", "patients with treatment-emergent adverse events [%]": 0}
{"test": "refers to: drug-induced liver injury", "setting": "60 mg once daily, Grade 4", "patients with treatment-emergent adverse events [%]": 0}
{"test": "refers to: lumbar vertebral fracture", "setting": "30 mg once daily, Grade 4, maximum intensity", "patients with treatment-emergent adverse events [%]": 0}
{"data": "Study 3", "Compound": "O=C(Nc1cccnn1)N1CCC(=Cc2cccc(Oc3ccc(C(F)(F)F)cn3)c2)CC1", "effect on": "cell-free assay", "technique": "competition with immobilised ligand", "tested at": "1 µM"}
{"target": "Receptor-interacting serine/threonine-protein kinase 2 (RIPK2, Homo sapiens, UniProt O43353)", "remaining binding": "94%"}
{"target": "Membrane-associated tyrosine- and threonine-specific cdc2-inhibitory kinase (PKMYT1, Homo sapiens, UniProt Q99640)", "remaining binding": "100%"}
{"target": "Protein-tyrosine kinase 2-beta (PTK2B, Homo sapiens, UniProt Q14289)", "remaining binding": "97%"}
{"target": "Cyclin-dependent kinase 7 (CDK7, Homo sapiens, UniProt P50613)", "remaining binding": "100%"}
{"target": "Mitogen-activated protein kinase kinase kinase 5 (MAP3K5, Homo sapiens, UniProt Q99683)", "remaining binding": "100%"}
{"target": "Calcium/calmodulin-dependent protein kinase type 1B (PNCK, Homo sapiens, UniProt Q6P2M8)", "remaining binding": "100%"}
{"target": "Ephrin type-A receptor 2 (EPHA2, Homo sapiens, UniProt P29317)", "remaining binding": "81%"}
{"target": "Phosphatidylinositol 4,5-bisphosphate 3-kinase catalytic subunit beta isoform (PIK3CB, Homo sapiens, UniProt P42338)", "remaining binding": "100%"}
{"target": "Serine/threonine-protein kinase PAK 5 (PAK5, Homo sapiens, UniProt Q9P286)", "remaining binding": "100%"}
{"target": "Mitogen-activated protein kinase kinase kinase kinase 1 (MAP4K1, Homo sapiens, UniProt Q92918)", "remaining binding": "80%"}
{"target": "Phosphatidylinositol 4-kinase beta (PI4KB, Homo sapiens, UniProt Q9UBF8)", "remaining binding": "100%"}
{"target": "Ankyrin repeat and protein kinase domain-containing protein 1 (ANKK1, Homo sapiens, UniProt Q8NFD2)", "remaining binding": "96%"}
{"target": "Death-associated protein kinase 1 (DAPK1, Homo sapiens, UniProt P53355)", "remaining binding": "100%"}
{"target": "Mitotic checkpoint serine/threonine-protein kinase BUB1 (BUB1, Homo sapiens, UniProt O43683)", "remaining binding": "100%"}
{"target": "Tyrosine-protein kinase JAK1, JH2 (JAK1, Homo sapiens, UniProt P23458)", "remaining binding": "100%"}
{"target": "Angiopoietin-1 receptor (TEK, Homo sapiens, UniProt Q02763)", "remaining binding": "94%"}
{"target": "Tyrosine-protein kinase ABL1, non-phosphorylated (ABL1, Homo sapiens, UniProt P00519, T315I)", "remaining binding": "100%"}
{"target": "Epidermal growth factor receptor (EGFR, Homo sapiens, UniProt P00533, G719C)", "remaining binding": "100%"}
{"target": "Phosphatidylinositol 4,5-bisphosphate 3-kinase catalytic subunit alpha isoform (PIK3CA, Homo sapiens, UniProt P42336, E545K)", "remaining binding": "100%"}
{"target": "Casein kinase I isoform gamma-1 (CSNK1G1, Homo sapiens, UniProt Q9HCP0)", "remaining binding": "100%"}
{"target": "Activin receptor type-2B (ACVR2B, Homo sapiens, UniProt Q13705)", "remaining binding": "98%"}
{"target": "Megakaryocyte-associated tyrosine-protein kinase (MATK, Homo sapiens, UniProt P42679)", "remaining binding": "100%"}
{"target": "Ephrin type-B receptor 3 (EPHB3, Homo sapiens, UniProt P54753)", "remaining binding": "81%"}
{"target": "Serine/threonine-protein kinase Chk1 (CHEK1, Homo sapiens, UniProt O14757)", "remaining binding": "78%"}
{"target": "Mitogen-activated protein kinase kinase kinase 7 (MAP3K7, Homo sapiens, UniProt O43318)", "remaining binding": "100%"}
{"data": "Study 4", "host": "human", "matrix": "microsomes or S9", "tested at": "2 µM", "time": "0.5 h"}
{"SMILES": "Cc1cc(=O)c(C(=O)Nc2nc3ccccc3nc2N2CCCC2)nn1-c1ccc(Cl)cc1", "remaining compound [%]": 88.1}
{"SMILES": "O=S(=O)(NCC(c1ccco1)S(=O)(=O)c1ccccc1)c1ccc(Oc2ccccc2)cc1 (centres unmarked)", "remaining compound [%]": 3.9}
{"SMILES": "CC(O)CN(Cc1ccc(C(C)(C)C)s1)C1CCS(=O)(=O)CC1 (centres unmarked)", "remaining compound [%]": 34}
{"SMILES": "CC(C)Oc1ccc(CNC(=O)NC2CCCCNC2=O)cn1 (centres unmarked)", "remaining compound [%]": 66}
{"SMILES": "Cc1c2cnn(CC(=O)NC3CCCc4ccccc43)c(=O)c2c(C)n1Cc1cccc(Cl)c1 (centres unmarked)", "remaining compound [%]": 0.685}
{"data": "Study 5", "SMILES": "O=Nc1c(-c2c(O)[nH]c3cc(Br)ccc23)[nH]c2ccccc12", "effect on": "enzyme activity", "action": "inhibitor", "tested at": "0.5 µM", "reference": "control"}
{"target": "Ephrin type-A receptor 2 (EPHA2, Homo sapiens, UniProt P29317)", "remaining activity": "70.9%"}
{"target": "Tyrosine-protein kinase JAK1 (JAK1, Homo sapiens, UniProt P23458)", "remaining activity": "76.2%"}
{"target": "Calcium/calmodulin-dependent protein kinase type 1 (CAMK1, Homo sapiens, UniProt Q14012)", "remaining activity": "96%"}
{"target": "Serine/threonine-protein kinase PAK 1 (PAK1, Homo sapiens, UniProt Q13153)", "remaining activity": "89.8%"}
{"target": "Vascular endothelial growth factor receptor 1 (FLT1, Homo sapiens, UniProt P17948)", "remaining activity": "75.1%"}
{"target": "Dual specificity protein kinase CLK1 (CLK1, Homo sapiens, UniProt P49759)", "remaining activity": "93.1%"}
{"target": "Insulin-like growth factor 1 receptor (IGF1R, Homo sapiens, UniProt P08069)", "remaining activity": "103%"}
{"target": "Casein kinase I isoform epsilon (CSNK1E, Homo sapiens, UniProt P49674)", "remaining activity": "83.7%"}
{"note": "Repeated from above (study 1):"}
{"SMILES": "O=C(Nc1ccc(N2CCC(C(=O)N3CCOCC3)CC2)cc1)c1cnc(Oc2ccccc2)nc1", "nuclei count": "-0.204 z-score"}
{"SMILES": "CSc1ccc2c(c1)C(N1CCN(C)CC1)Cc1ccccc1S2 (centres unmarked)", "nuclei count": "-5.01 z-score"}
{"SMILES": "O=C(Nc1cccnc1)c1cc(-c2ccnc(F)c2)ccc1OCc1ccccc1", "nuclei count": "0.241 z-score"}
{"SMILES": "CNC(=O)c1cc2c(cn1)[nH]c1ccccc12", "nuclei count": "1.54 z-score"}
{"SMILES": "c1cnc(N2CCN(Cc3ccc4c(c3)OCO4)CC2)nc1", "nuclei count": "-0.138 z-score"}
{"SMILES": "COc1cc(-c2ccc(=O)[nH]n2)ccc1OC(F)F", "nuclei count": "1.74 z-score and 2.19 z-score"}
